Measurements pooled from the literature.
Every numbered part comes from another study and shows a few of its results, in no order.
UniProt Q2M2I8, sequence (whole entry, looked up): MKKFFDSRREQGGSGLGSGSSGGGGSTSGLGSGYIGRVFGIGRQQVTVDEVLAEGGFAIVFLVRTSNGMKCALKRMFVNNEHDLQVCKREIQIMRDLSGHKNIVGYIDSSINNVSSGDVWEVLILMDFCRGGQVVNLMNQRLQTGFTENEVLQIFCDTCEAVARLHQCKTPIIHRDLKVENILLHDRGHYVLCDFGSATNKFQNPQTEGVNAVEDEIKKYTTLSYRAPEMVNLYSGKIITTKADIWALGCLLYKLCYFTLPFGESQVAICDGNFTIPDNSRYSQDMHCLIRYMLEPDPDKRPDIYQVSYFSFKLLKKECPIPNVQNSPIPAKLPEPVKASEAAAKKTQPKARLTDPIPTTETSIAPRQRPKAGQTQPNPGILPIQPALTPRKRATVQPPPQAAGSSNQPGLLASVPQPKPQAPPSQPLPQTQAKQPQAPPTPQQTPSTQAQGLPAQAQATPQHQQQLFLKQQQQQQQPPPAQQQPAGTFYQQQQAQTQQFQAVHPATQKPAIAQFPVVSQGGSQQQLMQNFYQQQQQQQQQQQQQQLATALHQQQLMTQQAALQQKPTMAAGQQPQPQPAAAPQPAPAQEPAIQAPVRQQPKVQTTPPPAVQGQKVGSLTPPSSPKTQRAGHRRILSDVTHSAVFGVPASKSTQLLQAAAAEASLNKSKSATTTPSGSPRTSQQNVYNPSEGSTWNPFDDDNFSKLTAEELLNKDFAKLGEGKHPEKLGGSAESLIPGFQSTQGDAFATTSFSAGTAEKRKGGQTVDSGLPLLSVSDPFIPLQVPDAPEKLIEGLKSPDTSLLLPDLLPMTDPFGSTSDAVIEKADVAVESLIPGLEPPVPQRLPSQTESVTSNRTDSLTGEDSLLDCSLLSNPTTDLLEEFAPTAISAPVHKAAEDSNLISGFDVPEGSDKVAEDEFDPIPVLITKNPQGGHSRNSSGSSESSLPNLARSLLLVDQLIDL
UniProt O00238, sequence (whole entry, looked up): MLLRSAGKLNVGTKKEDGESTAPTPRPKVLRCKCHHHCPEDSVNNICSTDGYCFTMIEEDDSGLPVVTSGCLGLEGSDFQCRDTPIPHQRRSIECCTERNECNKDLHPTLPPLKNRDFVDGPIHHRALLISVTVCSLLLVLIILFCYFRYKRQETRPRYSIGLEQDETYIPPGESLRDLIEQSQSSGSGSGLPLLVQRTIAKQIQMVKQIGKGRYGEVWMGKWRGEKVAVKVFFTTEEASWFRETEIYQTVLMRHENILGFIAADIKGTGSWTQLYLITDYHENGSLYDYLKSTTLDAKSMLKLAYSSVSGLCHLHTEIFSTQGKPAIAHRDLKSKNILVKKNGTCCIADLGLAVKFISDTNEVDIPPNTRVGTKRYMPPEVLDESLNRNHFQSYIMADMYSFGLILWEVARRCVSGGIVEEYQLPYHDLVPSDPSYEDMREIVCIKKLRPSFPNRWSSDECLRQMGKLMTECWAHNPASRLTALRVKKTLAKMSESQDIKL
UniProt Q9UKE5, sequence (whole entry, looked up): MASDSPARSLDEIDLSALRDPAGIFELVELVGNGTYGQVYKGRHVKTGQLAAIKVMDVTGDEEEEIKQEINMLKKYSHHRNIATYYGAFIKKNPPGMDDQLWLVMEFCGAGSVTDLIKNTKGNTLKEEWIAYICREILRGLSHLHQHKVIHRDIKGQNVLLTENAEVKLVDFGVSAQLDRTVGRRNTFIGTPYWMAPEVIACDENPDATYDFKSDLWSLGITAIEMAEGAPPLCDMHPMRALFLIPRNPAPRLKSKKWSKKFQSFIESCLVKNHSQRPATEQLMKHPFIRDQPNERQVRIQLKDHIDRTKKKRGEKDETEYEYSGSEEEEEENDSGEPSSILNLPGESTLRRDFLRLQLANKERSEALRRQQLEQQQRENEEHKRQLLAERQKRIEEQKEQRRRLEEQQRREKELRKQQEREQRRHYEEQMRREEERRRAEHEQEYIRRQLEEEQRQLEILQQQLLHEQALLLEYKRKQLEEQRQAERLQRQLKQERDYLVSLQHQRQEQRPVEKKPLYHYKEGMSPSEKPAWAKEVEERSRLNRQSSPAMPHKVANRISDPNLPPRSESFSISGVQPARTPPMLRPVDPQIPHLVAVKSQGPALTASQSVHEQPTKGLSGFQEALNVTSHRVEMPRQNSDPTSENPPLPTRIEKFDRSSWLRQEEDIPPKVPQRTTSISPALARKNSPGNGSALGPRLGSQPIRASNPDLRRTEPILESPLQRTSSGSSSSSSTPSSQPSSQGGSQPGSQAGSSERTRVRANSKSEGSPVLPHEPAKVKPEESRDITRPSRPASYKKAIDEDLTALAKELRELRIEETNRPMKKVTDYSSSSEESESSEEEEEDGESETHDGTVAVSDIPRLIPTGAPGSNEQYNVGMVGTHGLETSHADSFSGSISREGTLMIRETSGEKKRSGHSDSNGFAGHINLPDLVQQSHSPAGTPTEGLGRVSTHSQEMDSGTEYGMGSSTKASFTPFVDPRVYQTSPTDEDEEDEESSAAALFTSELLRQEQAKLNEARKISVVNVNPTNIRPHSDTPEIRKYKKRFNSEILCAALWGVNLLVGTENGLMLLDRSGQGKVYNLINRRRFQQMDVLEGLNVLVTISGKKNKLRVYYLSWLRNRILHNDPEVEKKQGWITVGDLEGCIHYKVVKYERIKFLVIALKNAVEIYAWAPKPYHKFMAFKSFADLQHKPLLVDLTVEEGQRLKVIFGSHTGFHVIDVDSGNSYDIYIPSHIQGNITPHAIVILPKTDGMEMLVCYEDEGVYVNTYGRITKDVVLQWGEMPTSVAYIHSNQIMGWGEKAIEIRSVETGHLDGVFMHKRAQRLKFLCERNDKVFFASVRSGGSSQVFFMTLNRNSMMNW
UniProt Q13163, sequence (whole entry, looked up): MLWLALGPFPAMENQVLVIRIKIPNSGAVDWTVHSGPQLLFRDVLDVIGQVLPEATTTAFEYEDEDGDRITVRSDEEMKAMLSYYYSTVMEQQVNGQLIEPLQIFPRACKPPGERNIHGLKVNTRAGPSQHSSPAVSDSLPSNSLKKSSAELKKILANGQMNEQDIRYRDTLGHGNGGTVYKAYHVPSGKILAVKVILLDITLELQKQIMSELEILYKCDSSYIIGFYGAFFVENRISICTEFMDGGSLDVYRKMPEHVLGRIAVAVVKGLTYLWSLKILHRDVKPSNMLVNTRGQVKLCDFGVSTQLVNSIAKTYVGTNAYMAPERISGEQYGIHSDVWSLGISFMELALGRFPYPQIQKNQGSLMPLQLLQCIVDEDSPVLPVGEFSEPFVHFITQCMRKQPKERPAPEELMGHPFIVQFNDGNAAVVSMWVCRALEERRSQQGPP
UniProt P08588, sequence (whole entry, looked up): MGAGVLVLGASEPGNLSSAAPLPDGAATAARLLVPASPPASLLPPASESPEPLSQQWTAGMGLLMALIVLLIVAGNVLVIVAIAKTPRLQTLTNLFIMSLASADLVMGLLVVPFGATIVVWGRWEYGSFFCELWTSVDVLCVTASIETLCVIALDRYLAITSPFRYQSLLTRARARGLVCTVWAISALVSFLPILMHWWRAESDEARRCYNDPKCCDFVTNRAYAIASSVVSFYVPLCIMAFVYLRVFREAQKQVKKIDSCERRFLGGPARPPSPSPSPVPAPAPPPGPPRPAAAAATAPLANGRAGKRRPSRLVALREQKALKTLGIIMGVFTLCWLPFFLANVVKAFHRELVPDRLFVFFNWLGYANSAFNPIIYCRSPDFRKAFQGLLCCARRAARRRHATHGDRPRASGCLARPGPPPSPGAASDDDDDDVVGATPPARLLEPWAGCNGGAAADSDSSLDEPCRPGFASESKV
UniProt Q13188, sequence (whole entry, looked up): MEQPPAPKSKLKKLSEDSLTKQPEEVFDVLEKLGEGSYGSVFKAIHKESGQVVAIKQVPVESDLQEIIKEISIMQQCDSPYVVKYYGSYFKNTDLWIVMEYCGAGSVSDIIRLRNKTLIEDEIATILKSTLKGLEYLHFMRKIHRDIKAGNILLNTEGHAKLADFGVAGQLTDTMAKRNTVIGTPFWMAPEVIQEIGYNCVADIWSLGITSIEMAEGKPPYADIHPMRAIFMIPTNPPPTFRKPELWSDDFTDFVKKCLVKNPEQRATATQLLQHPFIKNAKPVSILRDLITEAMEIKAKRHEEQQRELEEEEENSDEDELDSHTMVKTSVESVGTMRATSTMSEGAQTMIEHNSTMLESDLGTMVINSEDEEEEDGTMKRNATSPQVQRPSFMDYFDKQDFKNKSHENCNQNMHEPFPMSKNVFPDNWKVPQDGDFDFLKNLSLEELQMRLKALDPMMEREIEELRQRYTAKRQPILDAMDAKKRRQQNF
UniProt Q9UQB9, sequence (whole entry, looked up): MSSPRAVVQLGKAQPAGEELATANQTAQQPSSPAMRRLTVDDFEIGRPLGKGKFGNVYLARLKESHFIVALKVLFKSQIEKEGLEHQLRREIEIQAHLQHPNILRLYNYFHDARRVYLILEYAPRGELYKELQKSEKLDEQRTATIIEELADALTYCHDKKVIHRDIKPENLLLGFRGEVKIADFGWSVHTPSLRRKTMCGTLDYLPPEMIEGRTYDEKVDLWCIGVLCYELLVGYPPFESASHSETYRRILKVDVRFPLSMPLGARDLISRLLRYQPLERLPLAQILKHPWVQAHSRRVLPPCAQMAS
UniProt O43293, sequence (whole entry, looked up): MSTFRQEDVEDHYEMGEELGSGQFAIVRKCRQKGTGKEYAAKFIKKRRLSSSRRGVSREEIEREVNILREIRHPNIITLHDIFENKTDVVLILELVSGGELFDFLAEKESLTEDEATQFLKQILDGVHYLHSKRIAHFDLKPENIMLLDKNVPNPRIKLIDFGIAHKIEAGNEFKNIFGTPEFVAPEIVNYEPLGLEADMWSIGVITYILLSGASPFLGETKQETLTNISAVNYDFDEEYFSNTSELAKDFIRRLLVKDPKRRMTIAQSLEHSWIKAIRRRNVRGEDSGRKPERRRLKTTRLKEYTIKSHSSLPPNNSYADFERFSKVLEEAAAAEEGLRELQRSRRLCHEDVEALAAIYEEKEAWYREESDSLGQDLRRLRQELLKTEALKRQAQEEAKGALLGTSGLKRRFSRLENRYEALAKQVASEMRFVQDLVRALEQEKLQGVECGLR

Sample 1 — technique: protein-binding microarray; molecule type: double-stranded DNA, one strand shown; medium: in vitro; tested at: not given; direction: higher = stronger binding
Target: Protein max, full length (MAX, Homo sapiens, UniProt P61244-2, residues 1-151)
Notes: k-mer, scored over probes, only values ≥0.25
Sequence | E-score
ACTGCGTG | 0.276
ACATCATG | 0.254
ATGTGGCA | 0.272
CAATCACA | 0.273
ACGTGCGC | 0.466
GGGGAGGA | 0.261
ACACGCAC | 0.356
ACAAGCGT | 0.257

Sample 2 — host: human; medium: microsomes or S9; tested at: 2 µM; time: 0.5 h
SMILES | remaining compound [%]
Cc1cc(-c2cc(=O)n(Cc3ccc(F)cc3Cl)nc2-c2ccco2)on1 | 92.3
CC(=O)O[C@H](C)[C@@H]1NC(=O)[C@H](CC(C)C)NC1=O | 93.8
CC(Nc1oc(/C=C/c2cccs2)nc1C#N)c1ccccc1 (stereo not drawn) | 2.44

Sample 3 — tested at: 1 µM
Structure (SMILES): Cc1nc(N2CC[C@@H](O)C2)ncc1-c1cc(C(F)(F)F)cc2[nH]ncc12
target | observed | technique | remaining binding
RAF proto-oncogene serine/threonine-protein kinase (RAF1, Homo sapiens, UniProt P04049) | binding | competition with immobilised ligand | 100%
Serine/threonine-protein kinase 3 (STK3, Homo sapiens, UniProt Q13188) | binding | competition with immobilised ligand | 80%
Bone morphogenetic protein receptor type-1B (BMPR1B, Homo sapiens, UniProt O00238) | cell-free assay | competition with immobilised ligand | 60%
AP2-associated protein kinase 1 (AAK1, Homo sapiens, UniProt Q2M2I8) | binding | – | 100%
TRAF2 and NCK-interacting protein kinase (TNIK, Homo sapiens, UniProt Q9UKE5) | binding | competition with immobilised ligand | 100%
Serine/threonine-protein kinase Nek7 (NEK7, Homo sapiens, UniProt Q8TDX7) | binding | competition with immobilised ligand | 97%
Serine/threonine-protein kinase haspin (HASPIN, Homo sapiens, UniProt Q8TF76) | cell-free assay | competition with immobilised ligand | 66%
Tyrosine-protein kinase receptor UFO (AXL, Homo sapiens, UniProt P30530) | binding | competition with immobilised ligand | 80%
Proto-oncogene tyrosine-protein kinase Src (SRC, Homo sapiens, UniProt P12931) | cell-free assay | competition with immobilised ligand | 95%
Bone morphogenetic protein receptor type-2 (BMPR2, Homo sapiens, UniProt Q13873) | cell-free assay | competition with immobilised ligand | 81%
Aurora kinase C (AURKC, Homo sapiens, UniProt Q9UQB9) | cell-free assay | competition with immobilised ligand | 100%
Death-associated protein kinase 3 (DAPK3, Homo sapiens, UniProt O43293) | binding | competition with immobilised ligand | 100%
Epidermal growth factor receptor (EGFR, Homo sapiens, UniProt P00533, L858R) | cell-free assay | competition with immobilised ligand | 77%
Dual specificity mitogen-activated protein kinase kinase 5 (MAP2K5, Homo sapiens, UniProt Q13163) | binding | competition with immobilised ligand | 68%
Serine/threonine-protein kinase pim-3 (PIM3, Homo sapiens, UniProt Q86V86) | binding | competition with immobilised ligand | 100%

Sample 4 — technique: aptamer microarray, sandwich; molecule type: DNA with 2'F-ANA; medium: in vitro; tested at: 200 nM; together with: Cy3 exosite-II aptamer, 400 nM; direction: higher = stronger binding; sequence: GGTTGGTGTGGTTGG
Target: Prothrombin, mature alpha-thrombin (F2, Homo sapiens, UniProt P00734)
Notes: whole 15-mer aptamer, many near background
Modification | mean fluorescence intensity
2'F-ANA at 4 6 9 10 11 13 | 83.1 a.u.
2'F-ANA at 2 3 4 5 6 8 12 13 14 15 | 51.5 a.u.
2'F-ANA at 5 6 7 8 9 12 14 | 45 a.u.
2'F-ANA at 1 2 8 11 12 13 15 | 312 a.u.
2'F-ANA at 1 3 6 14 | 86.8 a.u.
2'F-ANA at 7 8 9 10 12 13 14 | 152 a.u.
2'F-ANA at 1 3 5 8 10 11 12 | 47.9 a.u.
2'F-ANA at 1 2 3 4 5 10 11 | 47.6 a.u.

Single results of other studies
Compound | target | observed | mode | technique | notes | IC50 [µM]
O=C1c2cnc(-c3cn[nH]c3)nc2OCCN1Cc1ccc(F)cc1F | Beta-1 adrenergic receptor (ADRB1, Homo sapiens, UniProt P08588) | – | antagonist | – | – | ≥ 100
C=CCc1ccc(O)c(-c2ccc(O)c(CC=C)c2)c1 | Anoctamin-1 (ANO1, Homo sapiens, UniProt Q5XXA6, del476-501/R631I) | chloride current | inhibitor | whole-cell voltage clamp | R605I mutant at 40 mV | 23.5
